Published values gathered from unrelated publications.
Each line is one published result; not all experiments were run side by side. ± gives the spread as reported.
rep main protease: Replicase polyprotein 1ab, main protease (rep, Severe acute respiratory syndrome coronavirus 2, UniProt P0DTD1)
rep nsp14 N7-methyltransferase: Replicase polyprotein 1ab, nsp14 N7-methyltransferase (rep, Severe acute respiratory syndrome coronavirus 2, UniProt P0DTD1)
rep nsp12 with nsp7/nsp8: Replicase polyprotein 1ab, nsp12 with nsp7/nsp8 (rep, Severe acute respiratory syndrome coronavirus 2, UniProt P0DTD1)
rep papain-like protease: Replicase polyprotein 1ab, papain-like protease (rep, Severe acute respiratory syndrome coronavirus 2, UniProt P0DTD1)
rep nsp14 methyltransferase: Replicase polyprotein 1ab, nsp14 methyltransferase (rep, Severe acute respiratory syndrome coronavirus 2, UniProt P0DTD1)
rep nsp13 helicase: Replicase polyprotein 1ab, nsp13 helicase (rep, Severe acute respiratory syndrome coronavirus 2, UniProt P0DTD1)

C[Se]C[C@H](N)C(=O)O gave an inhibition of -0.644% (rep main protease; reporter gene (mKate2), inhibitor; 20 µM).
For O.O=c1c(O)c(-c2ccc(O)cc2O)oc2cc(O)cc(O)c12, the Hill slope was 1.86 ± 0.08 (rep nsp14 N7-methyltransferase; N7-methyltransferase activity, inhibitor, Py-FLINT).
For CC(C)C[C@H](NC(=O)OCc1ccccc1)C(=O)N(C)N(C#N)CCC(N)=O, the kinact/Ki was 489 M⁻¹ s⁻¹ (rep main protease; inhibitor, biochemical).
Under “full extension time”, N#C[C@@]1(n2ccc(N)nc2=O)O[C@H](COP(=O)(O)OP(=O)(O)OP(=O)(O)O)[C@@H](O)[C@H]1O is recorded as no more than 1 s (rep nsp12 with nsp7/nsp8; 40-nt product after incorporation; 25 µM, added: NTPs 100 µM).
With CCC(C(=O)Nc1cc(NC2CNC2)ccc1C)n1cc(Br)cc2nc(SCc3ccc(F)cc3)nc1-2 (centres unmarked) the koff was 0.075 s⁻¹ (rep papain-like protease; binding).
With Cc1ccc(C)c(C(=O)N2CC[C@@H]([C@@H]3CCCN(C(=O)c4cccc5oc(=O)[nH]c45)C3)C2)c1 the inhibition was 13.4% (rep main protease; enzyme activity, inhibitor; 5 µM, run 1).
O=C(O)c1nnn(-c2nccs2)c1-c1ccc2c(c1)OCO2 gave a Hill slope of 0.77 ± 0.1 (rep nsp14 N7-methyltransferase; N7-methyltransferase activity, inhibitor, Py-FLINT).
The inhibition of COc1cc(O)cc(OC)c1 is reported as 3.11% (rep main protease; reporter gene (Gaussia luciferase), inhibitor; 20 µM).
The inhibition of O=C1NC(=O)C2(CC(C(=O)N3CCC[C@H]([C@H]4CCCN(C(=O)Cc5cccnc5)C4)C3)C2)N1 (some centres unmarked) is reported as 11.9% (rep main protease; enzyme activity, inhibitor; 5 µM, run 2).
For Cc1nn(-c2ccc(Cl)cc2)c2c1C(c1ccc(Cl)cc1Cl)C(C#N)=C(N)O2 (centres unmarked), the inhibition was 50.6% (rep main protease; 3CL protease activity; 0.1 µg/mL, 120 min, enzyme 100 ng/mL).
The inhibition of CC(C)(C)OC(=O)N[C@H]1CCCCC/C=C\[C@@H]2C[C@@]2(C(=O)NS(=O)(=O)C2CC2)NC(=O)[C@@H]2C[C@@H](OC(=O)N3Cc4cccc(F)c4C3)CN2C1=O is reported as 0.0466% (rep main protease; reporter gene (mKate2), inhibitor; 20 µM).
Cc1cc(/C=C/c2ccc3cc(N(C)C)ccc3[n+]2C)c(C)n1-c1ccccc1 has a Hill slope of 1.54 ± 0.06 (rep nsp14 N7-methyltransferase; N7-methyltransferase activity, inhibitor, Py-FLINT).
With O=C(Oc1cncc(Cl)c1)c1ccc2[nH]c3c(c2c1)CCCC3 the kinact/Ki was 5620 M⁻¹ s⁻¹ (rep main protease; inhibitor, biochemical).
CN(Cc1cc(Br)cc(Br)c1N)C1CCCCC1 has an inhibition of 1.29% (rep main protease; reporter gene (Gaussia luciferase), inhibitor; 20 µM).
The Hill slope of COC(=O)c1c(C)[nH]c(C(=O)COn2nnc3ccc(S(=O)(=O)N(C)C)cc32)c1C is reported as 1.97 (rep main protease; enzyme activity, inhibitor; SARS-CoV-2).
CC(=O)Nc1ccc(-c2cnc(/N=C\c3cc4ccccc4nc3Cl)s2)cc1 gave a ΔTm of -7 °C (rep papain-like protease; thermal stability, DSF).
The kinact of `Rhodiosin` is reported as 0.0263 min⁻¹ (rep main protease; inactivator).
C=CS(=O)(=O)N(c1ccc(C(C)(C)C)cc1)C(C(=O)NCCc1cccc(Cl)c1)c1cccnc1 (centres unmarked) has a kinact of 1.02 min⁻¹ (rep main protease; enzyme activity, inhibitor).
The inhibition of O=C(NC[C@H](NC(=O)c1cncc2ccccc12)c1ccc2ccccc2c1)c1cnc[nH]1 is reported as 19% (rep main protease; enzyme activity; 5 µM).
CCC(C(=O)Nc1cc(NC2CCNCC2)ccc1C)n1cc(Br)cc2nc(SCc3ccc(F)cc3)nc1-2 (centres unmarked) has a koff of 0.04 s⁻¹ (rep papain-like protease; binding).
The Hill slope of O=c1c(O)c(-c2cc(O)c(O)c(O)c2)oc2cc(O)cc(O)c12 is reported as 1.54 ± 0.19 (rep nsp14 N7-methyltransferase; N7-methyltransferase activity, inhibitor, Py-FLINT).
Nc1ccn([C@@H]2O[C@H](COP(=O)(O)OP(=O)(O)OP(=O)(O)O)[C@@H](O)[C@H]2O)c(=O)n1 has a kcat of 600 s⁻¹ (rep nsp12 with nsp7/nsp8; substrate; templating base G).
For Cc1nc(C(=O)N2CC[C@@H]([C@@H]3CCCN3C(=O)c3cc(C)c4n[nH]nc4c3)C2)cc(=O)[nH]1, the inhibition was 10.5% (rep main protease; enzyme activity, inhibitor; 5 µM, mean of runs).
With Nc1ncnc2c([C@@H]3N[C@H](CO)[C@@H](O)[C@H]3O)c[nH]c12 the inhibition was 70.2% (Marburg virus; viral RNA in cell lysate; HeLa, Musoke; 100 µM, 24 h).
Cc1cnoc1C(=O)NC[C@@H]1CC2(CCOCC2)CN1C(=O)c1cc(F)cc(C(N)=O)c1 has an inhibition of 12.9% (rep main protease; enzyme activity, inhibitor; 5 µM, run 1).
The inhibition of CCn1c(-c2nonc2N)nc2c(C#CC(C)(C)O)ncc(OC[C@H]3CCCNC3)c21 is reported as -1.25% (rep main protease; reporter gene (Gaussia luciferase), inhibitor; 20 µM).
Under “lipophilic ligand efficiency”, CC1CC(c2ccc(C(=O)O)cc2)=NN1c1ccc(C#N)cc1.N (centres unmarked) is recorded as 1.7 (rep nsp14 methyltransferase).
CC[C@H](NC(=O)CCC(=O)O)C(=O)N[C@H](C(=O)N[C@@H](CC(C)C)C(=O)N[C@@H](CCC(N)=O)C(=O)Nc1ccc2c(C)cc(=O)oc2c1)C(C)(C)C gave an apparent kcat of 0.43 s⁻¹ (rep main protease; substrate; 5% DMSO; pH 7.2, 37 °C).
O=C(Cn1ccnn1)NC[C@H](NC(=O)c1cncc2ccccc12)c1ccc2ccccc2c1 has an inhibition of 10.6% (rep main protease; enzyme activity, inhibitor; 5 µM, run 1).
For CC(C)c1nnc(NC(=O)c2cccc(N3C(=O)c4ccccc4C3=O)c2)s1, the Hill slope was 1.03 ± 0.16 (rep nsp14 N7-methyltransferase; N7-methyltransferase activity, inhibitor, Py-FLINT).
CC1CC(c2ccc(C(=O)O)cc2)=NN1c1cccc(Cl)c1.N (centres unmarked): “lipophilic ligand efficiency” 1.3 (rep nsp14 methyltransferase).
For CCOC(=O)c1c(NC(=O)c2cc3ccccc3o2)sc(C)c1-c1ccccc1, the Hill slope was 0.85 ± 0.17 (rep nsp14 N7-methyltransferase; N7-methyltransferase activity, inhibitor, Py-FLINT).
CS(=O)(=O)n1cc2c(n1)CN([C@H]1CO[C@H](c3cc(F)ccc3F)[C@@H](N)C1)C2 gave an inhibition of 0.741% (rep main protease; reporter gene (mKate2), inhibitor; 20 µM).
O=C(NC[C@@H]1CC2(CCC2)CN1C(=O)c1ccc(F)c(O)c1)c1cncc2ccccc12 gave an inhibition of 26.4% (rep main protease; enzyme activity, inhibitor; 5 µM, run 1).
With CCOC(=O)N1CSCC1C(=O)O (racemic) the inhibition was 0.321% (rep main protease; reporter gene (Gaussia luciferase), inhibitor; 20 µM).
With Cc1cc2c(C(C)C)c(O)c(O)c(C=O)c2c(O)c1-c1c(C)cc2c(C(C)C)c(O)c(O)c(C=O)c2c1O the Hill slope was 1.1 ± 0.08 (rep nsp14 N7-methyltransferase; N7-methyltransferase activity, inhibitor, Py-FLINT).
The inhibition of Cc1nc(C)c(CCC(=O)N2C[C@]34CCC[C@@]3(C2)CN(C(=O)[C@@H]2CCC(=O)NC2)C4)c(=O)[nH]1 is reported as 13.9% (rep main protease; enzyme activity, inhibitor; 5 µM, run 1).
For CCCCC/C=C\C/C=C\CCCCCCCC(=O)O, the Hill slope was 2.02 ± 0.09 (rep nsp14 N7-methyltransferase; N7-methyltransferase activity, inhibitor, Py-FLINT).
CCCc1ccc(OCC(=O)N(Cc2nc(-c3cccnc3)no2)C(C)C)cc1 has an inhibition of 0.0309% (rep main protease; reporter gene (mKate2), inhibitor; 20 µM).
COCCC(=O)N1CCC(Oc2ccccc2)C1 (centres unmarked) has a fold enrichment of 0.796 (rep nsp13 helicase; binding, affinity selection mass spectrometry; relative to: other proteins in batch).
Under “subjects with adverse event”, CC[C@H](C)[C@H](NC(=O)[C@H](CC(C)C)NC(=O)[C@H](Cc1c[nH]c2ccccc12)NC(=O)[C@H](CCC(N)=O)NC(=O)[C@@H](NC(=O)[C@H](Cc1ccccc1)NC(=O)[C@H](C)NC(=O)[C@H](CCCCNC(=O)COCCOCCNC(=O)COCCOCCNC(=O)CC[C@H](NC(=O)CCCCCCCCCCCCCCCCCCC(=O)O)C(=O)O)NC(=O)[C@H](CCC(N)=O)NC(=O)[C@H](C)NC(=O)[C@@H](NC(=O)[C@H](CCCCN)NC(=O)[C@H](CC(=O)O)NC(=O)[C@H](CC(C)C)NC(=O)C(C)(C)NC(=O)[C@@H](NC(=O)[C@H](CO)NC(=O)[C@H](Cc1ccc(O)cc1)NC(=O)[C@H](CC(=O)O)NC(=O)[C@H](CO)NC(=O)[C@@H](NC(=O)[C@H](Cc1ccccc1)NC(=O)[C@@H](NC(=O)CNC(=O)[C@H](CCC(=O)O)NC(=O)C(C)(C)NC(=O)[C@@H](N)Cc1ccc(O)cc1)[C@@H](C)O)[C@@H](C)O)[C@@H](C)CC)[C@@H](C)CC)C(C)C)C(=O)N[C@@H](C)C(=O)NCC(=O)NCC(=O)N1CCC[C@H]1C(=O)N[C@@H](CO)C(=O)N[C@@H](CO)C(=O)NCC(=O)N[C@@H](C)C(=O)N1CCC[C@H]1C(=O)N1CCC[C@H]1C(=O)N1CCC[C@H]1C(=O)N[C@@H](CO)C(N)=O is recorded as 16.7% (measured: treatment-emergent catheter site bruise; healthy subjects; 4.5 mg, multiple ascending dose).
The kon of C=CS(=O)(=O)N(c1ccc(C(C)(C)C)cc1)C(C(=O)NC1CCCCC1)c1cccnc1 (centres unmarked) is reported as 1700 ± 0.3 M⁻¹ s⁻¹ (rep main protease; inhibitor, ITC, irreversible model; 16.7 µM).
CC(Oc1ccccc1)C(=O)NCc1ccccn1 (centres unmarked) gave a fold enrichment of 0.777 (rep nsp13 helicase; binding, affinity selection mass spectrometry; relative to: other proteins in batch).
For Nc1ncnc2c1ncn2[C@@H]1O[C@H](Cn2cc(CNS(=O)(=O)c3ccccc3)nn2)[C@@H](O)[C@H]1O, the remaining binding was greater than 50% (rep nsp14 N7-methyltransferase; N7-methyltransferase activity, inhibitor, radioactive filter binding; 50 µM, 0.5 h, 30 °C, added: GpppAC4 RNA, SAM).

A few entries again:
For CC(C)C[C@H](NC(=O)OCc1ccccc1)C(=O)N(C)N(C#N)CCC(N)=O, the kinact/Ki was 489 M⁻¹ s⁻¹ (rep main protease; inhibitor, biochemical).
Under “full extension time”, N#C[C@@]1(n2ccc(N)nc2=O)O[C@H](COP(=O)(O)OP(=O)(O)OP(=O)(O)O)[C@@H](O)[C@H]1O is recorded as no more than 1 s (rep nsp12 with nsp7/nsp8; 40-nt product after incorporation; 25 µM, added: NTPs 100 µM).
With CCC(C(=O)Nc1cc(NC2CNC2)ccc1C)n1cc(Br)cc2nc(SCc3ccc(F)cc3)nc1-2 (centres unmarked) the koff was 0.075 s⁻¹ (rep papain-like protease; binding).
With Cc1ccc(C)c(C(=O)N2CC[C@@H]([C@@H]3CCCN(C(=O)c4cccc5oc(=O)[nH]c45)C3)C2)c1 the inhibition was 13.4% (rep main protease; enzyme activity, inhibitor; 5 µM, run 1).
